{"data": "Results pooled from the literature", "target": "Serine/threonine-protein kinase Sgk3 (SGK3, Homo sapiens, UniProt Q96BR1)", "Residues used in one study (Q96BR1 1-496)": "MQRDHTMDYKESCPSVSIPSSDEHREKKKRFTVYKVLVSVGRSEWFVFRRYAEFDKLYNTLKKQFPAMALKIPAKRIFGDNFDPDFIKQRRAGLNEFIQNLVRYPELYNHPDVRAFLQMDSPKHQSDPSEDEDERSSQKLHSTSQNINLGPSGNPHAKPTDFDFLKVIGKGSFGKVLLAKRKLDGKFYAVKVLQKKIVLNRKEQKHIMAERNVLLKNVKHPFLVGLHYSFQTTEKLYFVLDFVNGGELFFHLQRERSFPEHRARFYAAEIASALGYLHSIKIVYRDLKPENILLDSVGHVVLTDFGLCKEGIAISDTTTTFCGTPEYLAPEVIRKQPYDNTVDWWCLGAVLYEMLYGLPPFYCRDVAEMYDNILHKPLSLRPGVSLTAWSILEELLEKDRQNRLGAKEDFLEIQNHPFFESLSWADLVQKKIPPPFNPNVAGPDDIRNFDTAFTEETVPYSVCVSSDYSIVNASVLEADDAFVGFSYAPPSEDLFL", "note": "Protocols differ between the studies behind these lines."}
{"SMILES": "CCN1CCN(Cc2ccc(C(=O)Nc3ccc(C)c(NCc4cnc5[nH]ccc5c4OC)c3)cc2C(F)(F)F)CC1", "test": "binding, competition with immobilised ligand", "setting": "1 µM", "endpoint": "remaining binding", "value": "48%"}
{"SMILES": "Cc1ccc(C(=O)Nc2ccc(CN3CCN(C)CC3)c(C(F)(F)F)c2)cc1C#Cc1cnc2cccnn12", "test": "target engagement, NanoBRET", "test system": "human cells", "endpoint": "upper asymptote", "value": 62.8}
{"SMILES": "C=CC(=O)Nc1cccc(-c2cnc3[nH]cc(C(=O)NC(C)(C)C)c3n2)c1", "test": "enzyme activity, inhibitor", "setting": "0.1 µM", "endpoint": "inhibition", "value": "4%"}
{"SMILES": "Cc1cccc(O[C@H]2CCC[C@@H](C(C)CNCc3ccncc3)C2)c1 (relative stereo)", "test": "enzyme activity, inhibitor", "setting": "10 µM", "endpoint": "inhibition", "value": "-2%"}
{"SMILES": "COc1cc(Nc2nccc(-c3cnn4nc(OC)ccc34)n2)cc(C(F)(F)F)c1", "test": "binding, competition with immobilised ligand", "setting": "1 µM", "endpoint": "remaining binding", "value": "100%"}
{"SMILES": "C=CC(=O)N1CCc2ccc(-n3c(=O)ccc4cnc5ccc(-c6cnn(C)c6)cc5c43)cc21", "test": "KINOMEscan", "setting": "1 µM", "scale": "reference: DMSO control", "endpoint": "remaining binding", "value": "67%"}
{"SMILES": "CNC(=O)C1CCN(c2cc(C)c(F)cc2NC(=O)c2ccc(-c3cc(O)ccc3C)c(C)c2)CC1", "test": "binding, competition with immobilised ligand", "setting": "1 µM", "endpoint": "remaining binding", "value": "63%"}
{"SMILES": "COC(=O)[C@@]1(C)C=C(C(=O)Nc2cccc(C(=O)Nc3ccc(Nc4nccc(-c5cccnc5)n4)c(C)c3)c2)C(=O)CC1", "test": "enzyme activity, inhibitor, radiometric", "setting": "1 µM", "endpoint": "remaining activity", "value": "106%"}
{"SMILES": "COc1ccc(NC(=O)Nc2ccc3c(c2)C(=O)N(C(C)CO)CC(C)C(CN(C)Cc2ccc4c(c2)OCO4)O3)cc1 (centres unmarked)", "test": "kinase activity, KinaseProfiler", "setting": "0.03 µM, species human", "scale": "reference: control", "endpoint": "remaining activity", "value": "97%"}
{"SMILES": "C=CC(=O)N1CCCC(n2c(=O)c3ncccc3n(Cc3ccc(Oc4ccccc4)cc3)c2=O)C1 (centres unmarked)", "test": "cell-free assay, competition with immobilised ligand", "setting": "1 µM", "endpoint": "remaining binding", "value": "70%"}
{"SMILES": "Cc1cnc2nc1Nc1cccc(c1)COC/C=C/COCc1cc(ccc1OCCN1CCOCC1)N2", "test": "binding, competition with immobilised ligand", "setting": "0.1 µM", "endpoint": "remaining binding", "value": "98%"}
{"SMILES": "O=C(Cc1ccc(OCc2ccccc2)cc1)NC1(C(=O)O)CCN(C(=O)c2ccc(-c3cccc(Cl)c3)cc2)CC1", "test": "enzyme activity, inhibitor", "setting": "10 µM", "endpoint": "activity vs control", "value": "120%"}
{"SMILES": "NC(=O)C[C@H]1CCc2sc3ncnc(O[C@H]4CC[C@H](N5CCOCC5)CC4)c3c21", "test": "enzyme activity, inhibitor", "setting": "10 µM", "endpoint": "inhibition", "value": "6%"}
{"SMILES": "CNC1C[S+]2CC[S+]3CC[S+](C1)[Ru-4]321([N]=C=S)[n]2c3ccc(OC)cc3c3c4c(c5cc(F)c[n+]1c5c32)C(=O)NC4=O (centres unmarked)", "test": "KinomeScan", "setting": "0.1 µM", "scale": "reference: untreated", "endpoint": "remaining binding", "value": "80%"}
{"SMILES": "CNC(=O)C[C@H](Cc1ccc(C#N)cc1)NC(=O)c1cc(-c2ccc(CN[C@H](C)c3ccc(C)cc3)o2)ccc1Cl", "test": "enzyme activity, inhibitor", "setting": "1 µM", "endpoint": "activity vs control", "value": "101%"}
{"SMILES": "CS(=O)(=O)Nc1cccc(-c2csc3cnc(Nc4ccc(N5CCN(CCCCCOc6cccc7c6C(=O)N(C6CCC(=O)NC6=O)C7=O)CC5)cc4)nc23)c1 (centres unmarked)", "test": "probe labelling, inhibitor, KiNativ chemoproteomics", "test system": "MOLT-4", "setting": "1 µM", "endpoint": "inhibition", "value": "18.5%"}
{"SMILES": "CCn1cc(C(=O)O)c(=O)c2c(N)c(F)c(NC3CCCCC3)cc21", "test": "kinase activity", "setting": "0.1 µM, together with: ATP at Km", "endpoint": "inhibition", "value": "2.4%"}
{"note": "Excerpt of the above:"}
{"SMILES": "CCN1CCN(Cc2ccc(C(=O)Nc3ccc(C)c(NCc4cnc5[nH]ccc5c4OC)c3)cc2C(F)(F)F)CC1", "test": "binding, competition with immobilised ligand", "setting": "1 µM", "endpoint": "remaining binding", "value": "48%"}
